Measurements of several laboratories.
Numbered parts are unrelated; each lists some results of a single study. Several values in a cell are separate wells, animals, samples, runs or records.
Chain of UniProt Q15375 (whole entry, looked up): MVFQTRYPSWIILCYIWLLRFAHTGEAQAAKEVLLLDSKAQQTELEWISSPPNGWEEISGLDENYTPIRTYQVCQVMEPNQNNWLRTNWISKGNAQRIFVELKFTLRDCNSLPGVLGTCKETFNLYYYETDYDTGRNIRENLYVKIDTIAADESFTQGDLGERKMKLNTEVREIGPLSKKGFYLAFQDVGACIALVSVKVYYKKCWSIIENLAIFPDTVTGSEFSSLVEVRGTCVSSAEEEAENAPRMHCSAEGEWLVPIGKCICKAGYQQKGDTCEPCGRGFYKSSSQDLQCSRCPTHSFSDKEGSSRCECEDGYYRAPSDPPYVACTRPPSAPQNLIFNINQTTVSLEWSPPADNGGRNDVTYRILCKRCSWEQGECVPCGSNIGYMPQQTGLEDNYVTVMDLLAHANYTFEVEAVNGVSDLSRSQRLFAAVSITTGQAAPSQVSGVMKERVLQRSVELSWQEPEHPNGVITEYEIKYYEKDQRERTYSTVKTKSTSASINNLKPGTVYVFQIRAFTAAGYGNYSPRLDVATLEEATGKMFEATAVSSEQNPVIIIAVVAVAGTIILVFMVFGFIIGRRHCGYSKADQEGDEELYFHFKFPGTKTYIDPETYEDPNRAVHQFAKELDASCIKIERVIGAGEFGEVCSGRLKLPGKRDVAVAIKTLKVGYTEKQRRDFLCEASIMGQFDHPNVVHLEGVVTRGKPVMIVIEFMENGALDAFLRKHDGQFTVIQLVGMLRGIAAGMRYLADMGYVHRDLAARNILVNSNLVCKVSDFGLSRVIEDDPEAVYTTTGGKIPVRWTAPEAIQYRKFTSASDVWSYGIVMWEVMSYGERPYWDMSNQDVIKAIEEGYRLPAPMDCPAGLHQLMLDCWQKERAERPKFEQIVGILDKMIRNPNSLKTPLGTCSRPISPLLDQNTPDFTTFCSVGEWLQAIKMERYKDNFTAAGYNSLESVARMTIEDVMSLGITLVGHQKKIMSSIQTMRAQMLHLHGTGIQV
Chain of UniProt Q16816 (whole entry, looked up): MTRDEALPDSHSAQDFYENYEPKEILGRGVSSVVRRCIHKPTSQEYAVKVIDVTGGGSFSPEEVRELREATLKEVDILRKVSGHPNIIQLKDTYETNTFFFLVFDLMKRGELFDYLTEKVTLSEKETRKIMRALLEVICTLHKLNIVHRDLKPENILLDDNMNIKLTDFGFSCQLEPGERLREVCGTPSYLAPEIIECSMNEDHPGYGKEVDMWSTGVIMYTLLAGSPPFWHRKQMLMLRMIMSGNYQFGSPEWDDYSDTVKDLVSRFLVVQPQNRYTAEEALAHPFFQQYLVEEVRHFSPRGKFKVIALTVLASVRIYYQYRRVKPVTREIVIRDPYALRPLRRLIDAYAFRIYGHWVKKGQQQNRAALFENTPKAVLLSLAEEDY
Chain of UniProt Q9UHD2 (whole entry, looked up): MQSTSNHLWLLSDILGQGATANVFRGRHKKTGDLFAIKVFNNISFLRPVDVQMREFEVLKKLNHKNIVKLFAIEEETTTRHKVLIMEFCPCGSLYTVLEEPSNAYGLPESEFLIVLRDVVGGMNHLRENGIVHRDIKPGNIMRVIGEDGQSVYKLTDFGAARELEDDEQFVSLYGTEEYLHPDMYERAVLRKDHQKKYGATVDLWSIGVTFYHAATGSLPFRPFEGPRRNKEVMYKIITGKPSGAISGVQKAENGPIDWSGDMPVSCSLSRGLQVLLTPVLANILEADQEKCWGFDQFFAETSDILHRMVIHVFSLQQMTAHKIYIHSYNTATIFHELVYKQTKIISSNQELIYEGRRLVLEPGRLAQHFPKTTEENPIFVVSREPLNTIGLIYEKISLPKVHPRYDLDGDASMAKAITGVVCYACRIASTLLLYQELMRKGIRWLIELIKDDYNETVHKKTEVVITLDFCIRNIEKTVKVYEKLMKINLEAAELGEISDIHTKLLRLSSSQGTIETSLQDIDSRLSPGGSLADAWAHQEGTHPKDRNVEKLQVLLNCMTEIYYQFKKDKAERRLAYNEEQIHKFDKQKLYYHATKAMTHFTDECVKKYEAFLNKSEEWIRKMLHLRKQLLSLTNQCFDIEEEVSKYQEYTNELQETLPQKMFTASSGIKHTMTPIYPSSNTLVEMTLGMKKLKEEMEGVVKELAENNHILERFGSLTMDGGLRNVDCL
Chain of UniProt Q9HBY8 (whole entry, looked up): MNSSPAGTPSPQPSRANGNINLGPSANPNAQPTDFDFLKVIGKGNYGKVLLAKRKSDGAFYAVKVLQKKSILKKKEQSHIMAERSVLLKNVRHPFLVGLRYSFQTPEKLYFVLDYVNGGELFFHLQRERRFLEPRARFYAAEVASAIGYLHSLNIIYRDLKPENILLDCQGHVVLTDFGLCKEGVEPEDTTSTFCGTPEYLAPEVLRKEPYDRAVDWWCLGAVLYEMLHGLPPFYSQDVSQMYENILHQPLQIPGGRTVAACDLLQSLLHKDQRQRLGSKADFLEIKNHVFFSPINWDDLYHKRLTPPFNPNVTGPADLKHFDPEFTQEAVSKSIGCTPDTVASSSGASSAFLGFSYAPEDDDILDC

Series 1
Target: DNA polymerase theta, ATPase domain (POLQ, Homo sapiens, UniProt O75417)
Chain of UniProt O75417 (whole entry, unmodified, looked up): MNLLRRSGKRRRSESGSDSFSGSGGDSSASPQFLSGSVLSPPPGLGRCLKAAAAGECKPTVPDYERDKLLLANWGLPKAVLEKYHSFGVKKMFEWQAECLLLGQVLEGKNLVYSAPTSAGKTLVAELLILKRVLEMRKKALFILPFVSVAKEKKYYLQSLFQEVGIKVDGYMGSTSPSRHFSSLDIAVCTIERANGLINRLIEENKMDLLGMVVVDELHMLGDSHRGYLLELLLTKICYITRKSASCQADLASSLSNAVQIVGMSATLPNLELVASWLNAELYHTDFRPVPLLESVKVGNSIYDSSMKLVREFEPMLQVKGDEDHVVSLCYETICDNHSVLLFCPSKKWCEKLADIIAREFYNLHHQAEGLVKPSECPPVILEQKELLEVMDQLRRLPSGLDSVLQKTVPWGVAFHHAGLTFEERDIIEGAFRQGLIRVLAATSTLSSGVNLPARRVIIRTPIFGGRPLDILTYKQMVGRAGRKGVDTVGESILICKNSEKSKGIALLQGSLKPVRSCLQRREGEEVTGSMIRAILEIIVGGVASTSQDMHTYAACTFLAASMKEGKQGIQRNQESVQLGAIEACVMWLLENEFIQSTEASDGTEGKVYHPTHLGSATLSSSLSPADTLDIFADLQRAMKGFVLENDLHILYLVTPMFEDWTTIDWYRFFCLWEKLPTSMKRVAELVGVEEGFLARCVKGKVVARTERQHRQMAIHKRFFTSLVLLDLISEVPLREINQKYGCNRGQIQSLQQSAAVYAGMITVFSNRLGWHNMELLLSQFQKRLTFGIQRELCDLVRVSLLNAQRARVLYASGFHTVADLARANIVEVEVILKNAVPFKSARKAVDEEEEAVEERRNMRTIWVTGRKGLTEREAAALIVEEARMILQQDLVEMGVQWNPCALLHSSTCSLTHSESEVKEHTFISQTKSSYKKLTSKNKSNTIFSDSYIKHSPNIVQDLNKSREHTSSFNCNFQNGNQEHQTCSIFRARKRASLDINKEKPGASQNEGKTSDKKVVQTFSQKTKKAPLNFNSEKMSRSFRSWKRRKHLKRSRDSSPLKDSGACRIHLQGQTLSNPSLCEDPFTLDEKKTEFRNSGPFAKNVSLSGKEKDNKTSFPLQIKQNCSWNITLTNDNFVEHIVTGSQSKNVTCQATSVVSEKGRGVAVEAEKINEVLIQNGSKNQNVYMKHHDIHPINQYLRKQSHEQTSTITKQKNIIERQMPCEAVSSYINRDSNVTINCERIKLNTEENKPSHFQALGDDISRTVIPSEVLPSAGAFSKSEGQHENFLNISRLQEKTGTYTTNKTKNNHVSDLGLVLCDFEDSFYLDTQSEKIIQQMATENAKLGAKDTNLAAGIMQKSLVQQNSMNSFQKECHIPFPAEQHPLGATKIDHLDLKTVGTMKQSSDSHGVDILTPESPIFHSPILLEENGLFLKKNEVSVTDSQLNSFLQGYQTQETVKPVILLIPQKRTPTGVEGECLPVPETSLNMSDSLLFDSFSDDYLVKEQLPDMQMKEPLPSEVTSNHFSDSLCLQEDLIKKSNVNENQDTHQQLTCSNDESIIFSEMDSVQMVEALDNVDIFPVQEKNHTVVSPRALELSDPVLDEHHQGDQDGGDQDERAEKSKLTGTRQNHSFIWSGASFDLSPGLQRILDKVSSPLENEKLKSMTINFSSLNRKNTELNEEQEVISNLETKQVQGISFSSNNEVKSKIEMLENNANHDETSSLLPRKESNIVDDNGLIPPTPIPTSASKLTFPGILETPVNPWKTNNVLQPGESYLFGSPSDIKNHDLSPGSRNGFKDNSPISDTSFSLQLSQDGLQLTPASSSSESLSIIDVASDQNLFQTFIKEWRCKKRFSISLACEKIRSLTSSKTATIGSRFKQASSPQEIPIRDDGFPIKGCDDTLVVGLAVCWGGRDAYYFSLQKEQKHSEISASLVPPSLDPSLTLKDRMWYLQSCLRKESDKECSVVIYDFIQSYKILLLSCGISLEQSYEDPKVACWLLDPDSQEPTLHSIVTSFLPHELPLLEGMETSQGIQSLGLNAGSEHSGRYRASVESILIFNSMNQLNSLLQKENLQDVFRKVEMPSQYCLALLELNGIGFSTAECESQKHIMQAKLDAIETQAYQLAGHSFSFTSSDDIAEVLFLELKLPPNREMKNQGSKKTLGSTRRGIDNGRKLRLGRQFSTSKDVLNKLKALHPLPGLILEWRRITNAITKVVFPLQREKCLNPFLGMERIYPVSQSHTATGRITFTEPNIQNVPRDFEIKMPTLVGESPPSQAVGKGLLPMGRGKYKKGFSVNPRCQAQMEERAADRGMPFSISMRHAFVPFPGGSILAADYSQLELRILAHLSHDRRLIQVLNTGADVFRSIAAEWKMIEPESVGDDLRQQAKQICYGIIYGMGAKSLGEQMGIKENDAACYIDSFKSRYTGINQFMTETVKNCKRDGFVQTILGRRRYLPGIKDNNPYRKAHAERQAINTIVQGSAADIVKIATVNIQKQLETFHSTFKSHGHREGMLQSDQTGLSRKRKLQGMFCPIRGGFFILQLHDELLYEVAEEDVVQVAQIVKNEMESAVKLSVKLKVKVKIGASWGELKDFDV
Read-out: enzyme activity
Mode: inhibitor
Concentration: 77 µM
Reference: untreated
With `CC(C)NC(C)Cc1ccc(I)cc1` (stereo not shown) the remaining activity was 101%.
With `NC(N)=Nc1ccc2[nH]c3c(c2c1)C[C@@]1(O)[C@H]2Cc4ccc(O)c5c4[C@@]1(CCN2CC1CC1)[C@H]3O5` the remaining activity was 106%.
With `CN(N=O)c1cc(O)ccc1O` the remaining activity was 101%.
For `COC1=C[C@@H]2C3=C([C@@H]2C1=O)[C@@H](NC(C)=O)CCc1cc(OC)c(OC)c(OC)c13`, the remaining activity was 98.5%.
With `O=P1(N(CCCl)CCCl)NCCCO1` (stereo not shown) the remaining activity was 96.5%.

Series 2
SMILES: CC(C)S(=O)(=O)c1cc2c(Nc3ccc4sc(C5CCCC5)nc4c3)ccnc2cc1OCCO
It gave 98.9% and 99.2% and 93.3% for viability (L929; CCK-8; 3.125 µM, added: zVAD).
It gave 52.5% and 53.2% and 55.6% and 51.8% for viability (L929 RIPK3 knockout; 50 µM, added: zVAD).
L929; CCK-8; 50 µM — viability: 37.6% and 36.6% and 58% and 59.9%.
The viability was 87% and 93.2% and 92% and 96.7% and 88% (L929 RIPK3 knockout; 6.25 µM, added: zVAD).
L929 RIPK3 knockout; 0.781 µM, added: zVAD — viability: 90.4% and 97.8% and 95.4% and 91.2%.
The viability was 89.8% and 91.6% and 86.7% and 89.3% (L929 RIPK3 knockout; 6.25 µM).
It gave 36.4% for viability (L929; necroptosis protection, CCK-8; 0.123 µM, added: TNF-α plus zVAD).
L929; CCK-8; 50 µM, added: zVAD — viability: 39% and 56.8% and 38.4% and 37.8% and 57.3%.
The viability was 8.19% and 13.3% and 8.14% (L929; CCK-8; 100 µM, added: zVAD).
It gave 94.8% and 96.9% and 95.5% and 95% and 93.5% for viability (L929 RIPK3 knockout; 0.781 µM).
The viability was 98.2% and 101% and 97.5% and 97.3% and 91% (L929; CCK-8; 1.563 µM, added: zVAD).
L929; necroptosis protection, CCK-8; 0.078 µM, added: TNF-α plus zVAD — viability: 48.6%.

Series 3
Structure (SMILES): Cn1cncc1[C@](O)(COc1ccc(C#N)cc1-c1ccc(OC(F)(F)F)cc1)c1ccc(C#N)cc1
Read-out: cell-free assay
Method: competition with immobilised ligand
Concentration: 1 µM
AKT2 (Homo sapiens, UniProt P31751) — remaining binding: 81%.
The remaining binding was 100% (SGK2 (Homo sapiens, UniProt Q9HBY8)).
For ROCK2 (Homo sapiens, UniProt O75116): remaining binding read 94%.
WNK4 (Homo sapiens, UniProt Q96J92) — remaining binding: 100%.
For PAK1 (Homo sapiens, UniProt Q13153): remaining binding read 100%.
PHKG1 (Homo sapiens, UniProt Q16816) — remaining binding: 63%.
It gave 91% for remaining binding (EPHA7 (Homo sapiens, UniProt Q15375)).

Other studies, line by line
The remaining activity of `COC(=O)[C@]1(O)C[C@@H]2O[C@@]1(C)n1c3ccccc3c3c4c(c5c6ccccc6n2c5c31)C(=O)NC4` is reported as 5.25% (Serine/threonine-protein kinase TBK1 (TBK1, Homo sapiens, UniProt Q9UHD2); enzyme activity, inhibitor; 0.5 µM; reference: control).

Some of these lines once more (series 2):
It gave 94.8% and 96.9% and 95.5% and 95% and 93.5% for viability (L929 RIPK3 knockout; 0.781 µM).
It gave 36.4% for viability (L929; necroptosis protection, CCK-8; 0.123 µM, added: TNF-α plus zVAD).
L929; CCK-8; 50 µM — viability: 37.6% and 36.6% and 58% and 59.9%.
